Experimental data gathered from unrelated publications.
Compare with care: the assays were run in different laboratories. Numbers after ± are the reported error.

Structure (SMILES)	assay	test system	conditions	how to read	remaining compound [%]
C=CC(=O)Nc1ccc(-n2nc3c(=O)[nH]nc(N)c3c2-c2oc3cc(F)ccc3c2C)cc1		BALB/c nude mouse whole blood	1 µM, 2 h, 37 °C		49.4
O=CC1C(=O)Nc2ccccc21 (stereo not shown)		HEPES buffer	20 h, pH 7.4		94
[2H]C1([2H])C[C@@H](C[C@@H](C#N)NC(=O)[C@@H]2[C@@H]3[C@H](CN2C(=O)[C@@H](NC(=O)C(F)(F)F)C(C)(C)C)C3(C)C)C(=O)N1		human liver microsomes	60 min, together with: NADPH		70.1
O=Cc1cc(OCc2ccccc2)ccc1B(O)O		HEPES buffer	20 h, pH 7.4		90
CC(C)C[C@H](NC(=O)[C@H](CO)NC(=O)[C@H](CCC(=O)O)NC(=O)CNC(=O)[C@H](C)NC(=O)OCc1ccccc1)C(=O)N[C@@H](Cc1ccc(O)cc1)C(=O)N[C@@H](CCC(=O)O)C(N)=O		human plasma	0 min, 37 °C		100
O=C(NC1CCC(F)(F)CC1)C(c1cncnc1)N(C(=O)C(F)Cl)c1ccc(-c2cncs2)cc1 (stereo not shown)		human liver microsomes	concentration not given, 1 h, pH 7.4		40.8
[2H]C(Cc1c[nH]c2ccccc12)(Nc1ccccc1)C(=O)O (stereo not shown)		human liver microsomes	1.5 µM, 60 min, pH 7.4, mean of replicates	reference: 0 min	92.7
Cc1cc(C)nc(NC(=S)N2CCN(c3ccc(C(F)(F)F)cn3)CC2)c1		mouse liver microsomes	1 µM, 15 min		70.2 ± 0.7
Cc1ccc2oc(-c3c4c(N)n[nH]c(=O)c4nn3-c3ccc(NC(=O)/C=C/CN(C)C)cc3)c(C)c2c1		BALB/c nude mouse whole blood	1 µM, 2 h, 37 °C		40.1
[2H]C1([2H])CC[C@@H](C[C@@H](C#N)NC(=O)[C@@H]2[C@@H]3[C@H](CN2C(=O)[C@@H](NC(=O)C(F)F)C(C)(C)C)C3(C)C)C(=O)N1		mouse liver microsomes	60 min, together with: NADPH		14.7
O=C1CC[C@H](N2Cc3cc(-c4ccn5ncc(Cl)c5n4)ccc3C2=O)C(=O)N1		human liver microsomes	1 µM, 30 min		93.8
CC(C)(C)[C@H](NC(=O)c1ccc(Oc2ccc(C(=O)N[C@H]3CCCC[C@@H]3O)cc2)cc1)C(=O)NCCN1CCCC1		human liver microsomes	1 µM, 20 min, pH 7.4		88.5
C=C(NC(=O)c1csc(-c2nc3c(cc2O)-c2nc(cs2)C(=O)NC(C(C)O)C(=O)NC(=C(C)OC)c2nc(cs2)C(=O)NC2c4nc(cs4)C(=O)NC(COC(=O)c4c5c6c(cccc6n4O)COC(=O)C(OC4CC(C)(O)C(N(C)C)C(C)O4)C2OC5)c2nc-3cs2)n1)C(N)=O (stereo not shown)		Sprague-Dawley rat liver microsomes	2 µM, 60 min, together with: NADPH		> 90
[2H]C1([2H])CC[C@@H](C[C@@H](C#N)NC(=O)[C@@H]2[C@@H]3[C@H](CN2C(=O)[C@@H](NC(=O)C(F)(F)F)C(C)(C)C)C3(C)C)C(=O)N1		human liver microsomes	60 min, together with: NADPH		31.1
CCCCN1C(=O)c2cccc3c(N4CC[N+](C)(C5OC(C(=O)O)C(O)C(O)C5O)CC4)ccc(c23)C1=O (stereo not shown)		human liver microsomes	51.74 nM, 48 h, 4 °C		96
O=S(=O)(Cl)c1cc(C(F)(F)F)cc(C(F)(F)F)c1		HEPES buffer	20 h, pH 7.4		0
CO[C@@H](C[C@H]1C(C)=CC[C@@H]2[C@]3(C)C[C@H](O[C@@H]4O[C@@H](C)[C@H](O)[C@@H](O)[C@H]4O)[C@@H](O)C(C)(C)[C@H]3CC[C@]21C)[C@H](N)C(=O)O		simulated gastric fluid with pepsin	1 µM, 60 min, pH 1.2		99.8

Structure (SMILES)	assay	test system	conditions	how to read	remaining compound [%]
C[C@](C(=O)NC1CCC(F)(F)CC1)(c1cncnc1)N(C(=O)[C@H](F)Cl)c1ccc(OC(F)(F)F)cc1		human liver microsomes	concentration not given, 0.75 h, pH 7.4		6.4
CCN(CC)c1ccc2cc(C(=O)ON3C(=O)CCC3=O)c(=O)oc2c1	HPLC-MS	HEPES buffer	1 h, pH 7.4		1
O=C(CNC(=O)c1cccc(NC2=NCCCN2)c1)NC[C@H](NC(=O)c1c(Cl)cc(-c2ccccc2)cc1Cl)C(=O)O		mouse liver microsomes	45 min		92
Cc1nc2ccc(S(=O)(=O)n3nc(SCc4ccc(Cl)cc4)nc3N)cc2s1		human plasma	24 h		10
CC[C@H](C)[C@H](NC(=O)[C@@H](NC(=O)[C@H](CCC(=O)O)NC(=O)[C@H](C)NC(=O)[C@H](C)NC(=O)[C@H](CCC(=O)O)NC(=O)[C@H](Cc1ccc2ccccc2c1)NC(=O)[C@H](Cc1ccc(OCc2ccccc2[N+](=O)[O-])cc1)NC(=O)[C@@H](NC(=O)[C@@H](NC(=O)[C@H](CCCNC(=N)N)NC(=O)[C@H](C)NC(=O)[C@H](CC(N)=O)NC(=O)[C@H](CCCCN)NC(=O)[C@H](CCCNC(=N)N)NC(=O)[C@H](CCCCN)NC(=O)[C@H](CCCNC(=N)N)NC(=O)[C@H](CCCCN)NC(=O)[C@@H]1CCCN1C(=O)[C@H](CCCNC(=N)N)NC(=O)[C@H](CCCCN)NC(=O)[C@H](CCCNC(=N)N)NC(=O)[C@H](CCCNC(=N)N)NC(C)=O)C(C)C)[C@@H](C)O)[C@@H](C)CC)C(N)=O	HPLC	dark	24 h		99
C=CC(=O)NCc1ccc(-n2nc3c(=O)[nH]nc(N)c3c2-c2oc3ccc(C)cc3c2C)cc1		BALB/c nude mouse whole blood	1 µM, 5 h, 37 °C		92.9
CN(Cc1cc(C2CC2)on1)C(=O)c1cccc(-c2ccc(F)cc2)c1		human liver microsomes	2 µM, 0 min, pH 7.5, without ABT		100
Cc1cc(C)nc(NC(=S)N2CCN(Cc3ccc(C(F)(F)F)cc3)CC2)c1		aqueous buffer with 5 mM glutathione	48 h		> 95
c1n[nH]c2nnc(N3CCCCC3)cc12	LC-MS/MS	mouse liver S9 fraction, 0.25 mg/mL	3 µM, 30 min, together with: NADPH 1 mM		63.2
Cc1ccc(OCC(=O)N(Cc2cccs2)c2ccn[nH]2)cc1	ex vivo plasma stability	monkey plasma	750 ng/mL, 24 h, 37 °C		36.7
C=CC(=O)Nc1ccc(-n2nc3c(=O)[nH]nc(N)c3c2-c2oc3ccc(C)cc3c2C)cc1		BALB/c nude mouse whole blood	1 µM, 2 h, 37 °C		50.3
O=C(NC1CCC(F)(F)CC1)C(c1cncnc1)N(C(=O)C(F)Cl)c1ccc(OC(F)(F)F)cc1 (stereo not shown)		mouse liver microsomes	concentration not given, 0.25 h, pH 7.4		98.8
O=C(Oc1cccc(CSc2ncccn2)c1)c1ccc([N+](=O)[O-])cc1		mouse plasma	1 h		< 1
O=C(N1CCCCC1)C12CC(c3ccccc3)(C1)C2(F)F		pooled human liver microsomes	2 µM, 40 min, without NADPH		100
C/C(=N\OCCCN1CCOCC1)c1ccc(C(F)(F)F)cc1		human liver microsomes	30 min		64.5
O=C=Nc1cc(C(F)(F)F)cc(C(F)(F)F)c1		HEPES buffer	20 h, pH 7.4		39
COc1cc(-c2cncc(-c3ccc(C4CCN(C)CC4)cc3)c2C)cc(OC)c1OC		CD-1 mouse liver microsomes male	1 µM, 1 h, pH 7.4		56

For quick reference, copied from above:
Structure (SMILES)	assay	test system	conditions	how to read	remaining compound [%]
CC[C@H](C)[C@H](NC(=O)[C@@H](NC(=O)[C@H](CCC(=O)O)NC(=O)[C@H](C)NC(=O)[C@H](C)NC(=O)[C@H](CCC(=O)O)NC(=O)[C@H](Cc1ccc2ccccc2c1)NC(=O)[C@H](Cc1ccc(OCc2ccccc2[N+](=O)[O-])cc1)NC(=O)[C@@H](NC(=O)[C@@H](NC(=O)[C@H](CCCNC(=N)N)NC(=O)[C@H](C)NC(=O)[C@H](CC(N)=O)NC(=O)[C@H](CCCCN)NC(=O)[C@H](CCCNC(=N)N)NC(=O)[C@H](CCCCN)NC(=O)[C@H](CCCNC(=N)N)NC(=O)[C@H](CCCCN)NC(=O)[C@@H]1CCCN1C(=O)[C@H](CCCNC(=N)N)NC(=O)[C@H](CCCCN)NC(=O)[C@H](CCCNC(=N)N)NC(=O)[C@H](CCCNC(=N)N)NC(C)=O)C(C)C)[C@@H](C)O)[C@@H](C)CC)C(N)=O	HPLC	dark	24 h		99
COc1cc(-c2cncc(-c3ccc(C4CCN(C)CC4)cc3)c2C)cc(OC)c1OC		CD-1 mouse liver microsomes male	1 µM, 1 h, pH 7.4		56
O=C(NC1CCC(F)(F)CC1)C(c1cncnc1)N(C(=O)C(F)Cl)c1ccc(OC(F)(F)F)cc1 (stereo not shown)		mouse liver microsomes	concentration not given, 0.25 h, pH 7.4		98.8
